Published values pooled from the literature.
Protocols differ between the studies behind these lines. “And” joins repeats or separate records; there may be more than shown. ± marks the error that the study gave.

COc1ccccc1[C@H](Cn1c(=O)n(C(C)(C)C(=O)O)c(=O)c2c(C)c(-c3ncco3)sc21)OC1CCOCC1  fractional hepatic DNL ([1-13C]acetate infusion, isotopomer analysis; overweight or obese healthy men, plasma VLDL-TG palmitate; oral, 20 mg single dose, 7 h post-dose, added: oral fructose): 13.3 % new palmitate
CC(=O)Oc1cc2c(s1)CCN(C(C(=O)C1CC1)c1ccccc1F)C2 (stereo not drawn)  patients with IPA above threshold (platelet aggregation, light transmittance aggregometry; human, platelet-rich plasma; 15 min, IPA above 80 %, added: TRAP 15 µM; reference: patients): 0%
[Mn+2]  CD18-high cell fraction (flow cytometry; CD4-negative PBMC, BALB/c mouse; dose not given; reference: no Mn2+): 1.33 and 29.5 and 6.96 and 6.5 and 5.29 and 1.41 and 17.1 and 0.82
Cc1cnc(N2CC3(CCOCC3)C2)c(C(=O)Nc2ccc(C(=O)N3CCc4cc(C(=O)Nc5c(C)cccc5F)sc4-c4ccccc43)cc2)c1  inhibition (item: RANTES; human RSV infection, plasma; dose not given, AUC, ITT-IS population; reference: placebo): 18%
N#Cc1ccn2c(-c3ccncc3)c(-c3ccc(F)cc3)nc2c1  log2 fold change (kinase binding, competitor, MIB/MS competition, item: KIN3; Candida albicans cell lysate; 1 µM; reference: DMSO): 0.0486
Cl.O=C(c1cc(Cc2n[nH]c(=O)c3ccccc23)ccc1F)N1CC(CNC2CC2)C1  tumour growth inhibition (BALB/c nude mouse, MX1 xenograft; oral, 50 mg/kg once daily, 23 days): 71%
COc1ccc(F)cc1C(=O)NCc1ccc(-c2nn([C@@H](C)C(F)(F)F)c(N)c2C(N)=O)cc1  patients remaining on treatment (CLL/SLL patients; dose not given): 88%
CCc1c(C)nc(-c2ccc(Cl)s2)nc1Nc1ccc(CC(=O)O)cc1  PDE4B expression (C57BL/6J mouse, MCD diet MASH model, liver; intraperitoneal, 0.3 mg/kg daily, MCD diet 6 weeks, dosed final two weeks; reference: untreated): decreased
CCN1CCN(Cc2ccc(Nc3ncc(F)c(-c4cc(F)c5nc6n(c5c4)[C@H](C)CCC6)n3)nc2)CC1  progressive disease (human advanced solid tumours; 50 mg, phase Ia monotherapy RECIST 1.1): 100%
O=C(COc1ccc(Cl)cc1)NC12CC(c3nnc([C@H]4C[C@@H](OC(F)(F)F)C4)o3)(C1)C2  CHAC1 mRNA change (healthy human, PBMC; 260 mg once daily, day 14, 4 h post-dose, median, added: sodium arsenite ex vivo; reference: baseline): -78.7%
CN(C)C(=O)Oc1cccc([N+](C)(C)C)c1  twitch response (rat cisatracurium-induced neuromuscular block; 0.001 mg/kg): 0.174% and 1.9% and 5.15% and 4.43%
N=C(N)NCCC[C@@H](NC(=O)CCOCCOCCNC(=O)[C@H](CCCCNC(=O)CC[C@H](NC(=O)c1ccc(NCc2cnc3nc(N)[nH]c(=O)c3n2)cc1)C(=O)O)NC(=O)CO/N=C/[C@H](F)[C@@H](O)[C@H](O)[C@H](O)CO)C(=O)NCC(=O)N[C@H](CC(=O)O)C(N)=O [fluorine-18 labelled]  tumour uptake (nude mice, MDA-MB-231 xenograft, tumour; 2.5 h, added: unlabelled RGD 200 µg): 0.95 ± 0.27 %ID/g
CC(C)[C@H](C(=O)Nc1ccc(C(=O)NO)cc1)c1ccccc1  speech discrimination score, left ear (human; 1.6 2 weeks after dosing; direction not given): 100%
C[C@H]1C[C@H]2CSC(N)=N[C@@]2(c2nc(NC(=O)c3ccc(OC(F)F)cn3)cs2)CO1  percent change from baseline (item: Aβ1-40; healthy adults, plasma; 50 mg once daily, day 10; reference: placebo): -87.2%
Cc1cc(-c2nnc(N)nc2-c2ccc(F)cc2)cc(Cl)n1  GSVA score change (NanoString, item: T.helper.cells.Prat.IO signature; human mCRPC, peripheral blood; dose not given, 2 or 4 weeks; reference: baseline, direction not given): -0.244
CCO[C@H]1CCN(Cc2c(OC)cc(C)c3[nH]ccc23)[C@H](c2ccc(C(=O)O)cc2)C1  PNH RBC clone size (PNH patients, blood; oral, 25 mg then 100 mg, week 12, mean absolute change; reference: baseline): 43.4%
Cn1cc(Nc2nc(N)nc(-c3cccc(-n4ccc5cc(C6CC6)cc(F)c5c4=O)c3CO)n2)cn1  inhibition (CD63 upregulation, anti-IgE-induced; human, multiple ascending dose, whole blood basophils ex vivo; 300 mg twice daily, day 14, 4 h): 97.4%
O=C(O)CNC(=O)Cc1ccccc1  sarcomere length (ventricular cardiomyocytes, C57BL/6 mouse; dose not given, 0.612 s): 1.68 µm
N#Cc1ccc2c(-c3ccncc3)c(-c3ccc(F)cc3)nn2c1  log2 fold change (kinase binding, competitor, MIB/MS competition, item: CTK1; Candida albicans cell lysate; 100 nM; reference: DMSO): -0.582
CC(C)c1c(C(=O)Nc2ccccc2)c(-c2ccccc2)c(-c2ccc(F)cc2)n1CC[C@@H](O)C[C@@H](O)CC(=O)O  total cholesterol (cynomolgus monkey, male, serum; 40 mg/kg or 25 mg/kg, day 176, 4224 h): 120 mg/dL
CN[C@@H]1COc2c(S(=O)(=O)NC(=O)Nc3c4c(cc5c3CCC5)CCC4)cnn2C1  inhibition (item: IL-1β; human participants, whole blood ex vivo; 1800 mg single dose, 336 h, added: LPS/ATP; reference: baseline): 40.9%
O=C(NO)c1cccc(C(=O)NCCc2ccccc2)c1  viability (HBL-1; 0.5 µM, 120 h): 118%
OC(CCN1CCCCC1)(c1ccccc1)C1CC2C=CC1C2 (stereo not drawn)  EEG Beta1-power Fz-Cz (resting-state EEG; healthy elderly humans; oral, 4 mg, eyes closed, LS mean): 3 µV²
CC(=O)Nc1ccc(NC(=S)NC(=O)c2ccc(C(C)(C)C)cc2)cc1  viability (HBL-1; 0.1 µM, 120 h): 119%
CN(CCOc1ccc(CC2SC(=O)NC2=O)cc1)c1ccccn1 (racemic)  locomotor activity (indirect calorimetry; lean mice; dose not given, average over 72 h, end of treatment): 762 ± 352 counts/20 min
C[C@@H](O)CCOC(=O)C[C@@H](C)O  metabolite level (item: C8:1-OH/C6:1-DC acylcarnitine; human, plasma; 60 min, log2-transformed values): -5.31 ± 0.75 µmol/L
c1ccc(-c2n[nH]cc2-c2ccnc3ccccc23)nc1  log2 fold change (kinase binding, competitor, MIB/MS competition, item: RCK2; Candida albicans cell lysate; 10 µM; reference: DMSO): 1.56
O=C(NO)c1ccc(CN(c2cnccn2)c2cnccn2)cc1  progression-free survival (human; 800 mg BID): 9 months
NCC(=O)Nc1cncc(-c2nn3c(=O)cc(N4CCNCC4)nc3s2)c1  inhibition (ADP-induced platelet aggregation, light transmission aggregometry; human, stable CAD on aspirin, ex vivo platelets; subcutaneous, 0.05 mg/kg, 15 min post-dose, median value, added: ADP 20 µM): 77.1%
CCN(Cc1nc2c(N)nc3cc(-c4cc[nH]n4)ccc3c2[nH]1)C(C)=O  patients with increased CTLs (immunohistochemistry, item: CD8+ T cells; patients with advanced solid tumours, non-injected tumour lesions; dose not given, monotherapy): 67%
C[C@@H](NC(=O)N1C(=O)[C@H](Cc2ccnc(N)c2)[C@H]1C(=O)O)C1CCCCC1  PT Emax (human; iv infusion, 2.25 mg/kg/h, 24 h, unit not given; reference: baseline): 1.05
COc1ccc(F)cc1C(=O)NCc1ccc(-c2nn([C@@H](C)C(F)(F)F)c(N)c2C(N)=O)cc1  tumour regression (mouse TMD8 BTK C481S xenograft; oral, 30 mg/kg twice daily): -48%
CC(C)NCC(O)c1ccc(O)c(O)c1 (stereo not drawn)  sarcomere length (ventricular cardiomyocytes, C57BL/6 mouse; dose not given, 0 s): 1.72 µm
COc1ncnn2ccc(-c3cnc4nc(C)n(Cc5nnc([C@@H](C)F)o5)c4c3)c12  patients not evaluable for response (Homo sapiens, relapsed or refractory AML or MDS; dose not given, splicing factor mutation-positive): 0%
Cc1cn(-c2ccc3n(c2=O)CCN([C@@H](C)[C@@H]2CC[C@H](c4cc(F)c(Cl)cc4C(F)(F)F)O2)C3=O)cn1  change in CSF level (item: Aβ38; human, cerebrospinal fluid; 300 mg single dose, Tmax; reference: placebo-adjusted baseline): 46%
Cc1n[nH]c2ccc(-c3cc(OC[C@@H](N)Cc4ccccc4)cnc3-c3ccoc3)cc12  log2 fold change (kinase binding, competitor, MIB/MS competition, item: RIM11; Candida albicans cell lysate; 100 nM; reference: DMSO): -0.208
CC(C)C[C@H](NC(=O)[C@@H]1CCCN1C(=O)[C@H](Cc1ccccc1)NC(=O)CNC(=O)[C@@H]1CCCN1C(=O)[C@H](C)NC(=O)[C@H](CCCCNC(=O)CCOCCOCCNC(=O)CCOCCOCCNC(=O)CC[C@H](NC(=O)CCCCCCCCCCCCCCCCCCC(=O)O)C(=O)O)NC(=O)CNC(=O)[C@H](Cc1ccccc1)NC(=O)[C@@H](N)[C@@H](C)O)C(=O)NCC(=O)N[C@@H](CO)C(N)=O  liver to body weight ratio (mouse, CCl4 liver fibrosis; ip, 250 µg/kg daily, 4 weeks): 0.873 and 0.774 and 0.635
O=C(O)CCc1nccc2c1[nH]c1ccccc12  decrease in serum uric acid (mouse, acute hyperuricaemia model; oral, 2 mg/kg): 42.1%
CC(c1cc2ccccc2s1)N(O)C(N)=O (stereo not drawn)  15-HETE level (human blood; 3 µM, added: A23187): 228 ± 90 pg/mL
C[C@H](Oc1ccc(Br)cc1-c1ccon1)C(=O)O  latency change (muscle velocity recovery cycles; human, tibialis anterior muscle; 400 mg once daily, multiple doses, 30 Hz train for 30 s; reference: placebo): -1.79%
COc1ccc2c(c1)CC[C@@H]1[C@@H]2CC[C@]2(C)[C@@H](NCCCCCCN3C(=O)C=CC3=O)CC[C@@H]12  p-PKC level (immunostaining; humanized mouse, SAH model, middle cerebral artery; dose not given): 6.94 MFI and 7.23 MFI and 9.01 MFI
O=C(OC(C(F)(F)F)C(F)(F)F)N1CCN(Cc2cccc(Oc3ccccc3)c2)CC1  volume of distribution (PET blocking study; rhesus monkey, brain occipital cortex; intravenous, 0.3 mg/kg, compound pretreatment, added: [18F]T-401 tracer): 1.37 mL/cm3
COC[C@@H](c1ccc(C(F)(F)F)cc1)N1CCN(C2(C)CCN(C(=O)c3c(C)ncnc3C)CC2)C[C@@H]1C  change in HIV-1 RNA (HIV-1 infected patients, plasma; 15 mg, week 48, with optimized background regimen; reference: baseline): -1.81 log10 copies/mL
O=C(O)CNC(=O)C(CS)Cc1ccccc1 (stereo not drawn)  extracellular enkephalin concentration (inhibitor, LC-MS/MS, item: Met- or Leu-enkephalin; mouse striatal brain slices; 10 µM, 20 min, added: 50 mM KCl): 377 pM and 886 pM and 567 pM and 1640 pM and 524 pM and 1090 pM and 110 pM and 497 pM
C[C@H](NC(=O)c1c(C(F)F)nn(C)c1Oc1cccc(C(F)(F)F)c1)c1ccc(C(=O)O)cc1  partial response (human, advanced tumours; 250 mg, irRECIST): 0%
NC(=O)c1cnc2[nH]ccc2c1N[C@@H]1[C@@H]2CC3C[C@H]1C[C@@](O)(C3)C2  percent change (CD8+ central memory T cells, flow cytometry; Japanese humans, peripheral blood; 60 mg single dose; reference: baseline): 0.45%
C[C@H]1O[C@@H](O[C@H]2CC[C@@]3(C)[C@@H](CC[C@]4(C)[C@@H]3C=C[C@]35OC[C@@]6(CCC(C)(C)C[C@H]63)[C@@H](O)C[C@]54C)[C@]2(C)CO)[C@H](O)[C@@H](O[C@@H]2O[C@H](CO)[C@@H](O)[C@H](O)[C@H]2O)[C@H]1O  body weight change (pair-fed control mice, no ethanol; oral, 15 mg/kg/day): 0.5 g and 0.8 g and 1.5 g and 1 g and 1.2 g and 0.9 g
CCOCc1nc(O)c(-c2nnc(Cc3ccc(Cl)cn3)o2)c(O)c1-c1c(OC)cccc1OC  heart rate change (anaesthetised rat; intravenous infusion, 10 µg/kg/min for 15 min; reference: baseline): 2.4 ± 0.7%

Some of these lines once more:
O=C(NO)c1ccc(CN(c2cnccn2)c2cnccn2)cc1  progression-free survival (human; 800 mg BID): 9 months
COc1ccc(F)cc1C(=O)NCc1ccc(-c2nn([C@@H](C)C(F)(F)F)c(N)c2C(N)=O)cc1  tumour regression (mouse TMD8 BTK C481S xenograft; oral, 30 mg/kg twice daily): -48%
O=C(O)CNC(=O)Cc1ccccc1  sarcomere length (ventricular cardiomyocytes, C57BL/6 mouse; dose not given, 0.612 s): 1.68 µm
N=C(N)NCCC[C@@H](NC(=O)CCOCCOCCNC(=O)[C@H](CCCCNC(=O)CC[C@H](NC(=O)c1ccc(NCc2cnc3nc(N)[nH]c(=O)c3n2)cc1)C(=O)O)NC(=O)CO/N=C/[C@H](F)[C@@H](O)[C@H](O)[C@H](O)CO)C(=O)NCC(=O)N[C@H](CC(=O)O)C(N)=O [fluorine-18 labelled]  tumour uptake (nude mice, MDA-MB-231 xenograft, tumour; 2.5 h, added: unlabelled RGD 200 µg): 0.95 ± 0.27 %ID/g
C[C@@H](O)CCOC(=O)C[C@@H](C)O  metabolite level (item: C8:1-OH/C6:1-DC acylcarnitine; human, plasma; 60 min, log2-transformed values): -5.31 ± 0.75 µmol/L
CC(c1cc2ccccc2s1)N(O)C(N)=O (stereo not drawn)  15-HETE level (human blood; 3 µM, added: A23187): 228 ± 90 pg/mL
C[C@H](NC(=O)c1c(C(F)F)nn(C)c1Oc1cccc(C(F)(F)F)c1)c1ccc(C(=O)O)cc1  partial response (human, advanced tumours; 250 mg, irRECIST): 0%
O=C(NO)c1cccc(C(=O)NCCc2ccccc2)c1  viability (HBL-1; 0.5 µM, 120 h): 118%
